{"data": "Earlier results as cited in several papers", "note": "Protocols differ between the studies behind these lines. ± gives the spread as reported."}
{"Compound": "C[C@]12CC[C@@H]3c4ccc(O)cc4CC[C@H]3[C@@H]1CC[C@@H]2O", "tested on": "HT-22", "assay": "cell protection", "setting": "together with: glutamate 10 mM", "quantity": "EC50", "result": "1360 nM"}
{"Compound": "Nc1nc2c(ncn2[C@@H]2O[C@@H]3COP(=O)(O)O[C@H]3[C@H]2O)c(=O)[nH]1", "tested on": "PDE4D", "assay": "cyclic nucleotide hydrolysis, substrate or inhibitor, isothermal titration calorimetry", "quantity": "Km or Ki", "result": "24500 nM"}
{"Compound": "O=C1c2ccccc2-c2c1c1ccc([N+](=O)[O-])cc1c(=O)n2C[C@H](O)CO", "tested on": "renal SN12C", "assay": "cell growth", "quantity": "GI50", "result": "241 nM"}
{"Compound": "O=C1c2cccc3c2[C@H](CCC3)CN1[C@@H]1CN2CCC1CC2", "test system": "healthy volunteers", "setting": "oral, 0.75 mg single dose, mean, together with: netupitant 450 mg", "quantity": "half-life", "result": "38.5 h"}
{"Compound": "Nc1nc2c(nc(Sc3ccc(Cl)cc3)n2C2OC3COP(O)(=S)OC3C2O)c(=O)[nH]1 (stereo not shown)", "tested on": "PDE2A", "assay": "cyclic nucleotide hydrolysis, substrate or inhibitor, isothermal titration calorimetry", "quantity": "Km or Ki", "result": "52900 nM"}
{"Compound": "COc1cccc2c1C(=O)c1c(O)c3c(c(O)c1C2=O)C[C@@](O)(C(=O)CO)C[C@@H]3O[C@H]1C[C@H](N)[C@H](O)[C@H](C)O1", "tested on": "hiPSC-derived cardiomyocytes", "assay": "contractility", "setting": "72 h", "quantity": "lowest effective concentration", "result": "1.2 µM"}
{"Compound": "Cc1ccccc1-c1cc(N2CCN(C)CC2)ncc1N(C)C(=O)C(C)(C)c1cc(C(F)(F)F)cc(C(F)(F)F)c1", "test system": "healthy volunteers, plasma", "setting": "oral, dose not given, netupitant-palonosetron alone, rifampicin study", "quantity": "Vz/F", "result": "2540 L"}
{"Compound": "O=C(O)CNC(=O)c1ccccc1[131I]", "test system": "normal rat, liver", "setting": "10 min, together with: co-injected 99mTc-1", "quantity": "percent injected dose", "result": "4 ± 0.7 %ID"}
{"Compound": "O=C1c2ccccc2-c2c1c1ccc([N+](=O)[O-])cc1c(=O)n2CCCN1CCOCC1", "tested on": "colon HCT-116", "assay": "cell growth", "quantity": "GI50", "result": "38 nM"}
{"Compound": "CC(C)(C)c1nc(-c2cccc(NS(=O)(=O)c3c(F)cccc3F)c2F)c(-c2ccnc(N)n2)s1", "tested on": "hiPSC-derived cardiomyocytes", "assay": "contractility", "setting": "72 h", "quantity": "lowest effective concentration", "result": "36.8 µM"}
{"Compound": "O=C1c2ccccc2-c2c1c1ccc([N+](=O)[O-])cc1c(=O)n2CCCn1ccnc1", "tested on": "prostate DU-145", "assay": "cell growth", "quantity": "GI50", "result": "17 nM"}
{"Compound": "COc1cc(Nc2c(C#N)cnc3cc(OCCCN4CCN(C)CC4)c(OC)cc23)c(Cl)cc1Cl", "tested on": "hiPSC-derived cardiomyocytes", "assay": "contractility", "setting": "72 h", "quantity": "lowest effective concentration", "result": "4.73 µM"}
{"Compound": "CC[C@H](C)CCCCC(=O)N[C@@H](CCN)C(=O)N[C@H](C(=O)N[C@@H](CCN)C(=O)N[C@H]1CCNC(=O)[C@H]([C@@H](C)O)NC(=O)[C@H](CCN)NC(=O)[C@H](CCN)NC(=O)[C@H](CC(C)C)NC(=O)[C@@H](Cc2ccccc2)NC(=O)[C@H](CCN)NC1=O)[C@@H](C)O", "test system": "human patients with renal insufficiency", "setting": "intravenous, dose not given, population PK model", "quantity": "central volume of distribution", "result": "6.98 L"}
{"note": "Some of these lines once more:"}
{"Compound": "O=C1c2ccccc2-c2c1c1ccc([N+](=O)[O-])cc1c(=O)n2CCCn1ccnc1", "tested on": "prostate DU-145", "assay": "cell growth", "quantity": "GI50", "result": "17 nM"}
